{"data": "Measurements of several laboratories", "target": "Serine/threonine-protein kinase Nek7 (NEK7, Homo sapiens, UniProt Q8TDX7)", "Residues used in one study (Q8TDX7 1-302)": "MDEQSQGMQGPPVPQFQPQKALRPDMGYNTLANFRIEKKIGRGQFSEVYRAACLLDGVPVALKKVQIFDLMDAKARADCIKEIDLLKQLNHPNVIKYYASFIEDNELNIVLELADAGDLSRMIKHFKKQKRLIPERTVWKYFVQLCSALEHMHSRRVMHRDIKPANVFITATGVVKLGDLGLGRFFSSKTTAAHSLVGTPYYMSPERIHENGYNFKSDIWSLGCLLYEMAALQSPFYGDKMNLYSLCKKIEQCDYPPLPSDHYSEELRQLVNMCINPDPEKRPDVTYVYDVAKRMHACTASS", "note": "Each line is one published result; not all experiments were run side by side. Several values in a cell are separate wells, animals, samples, runs or records."}
{"SMILES": "Cc1cccc(O[C@H]2CCC[C@@H](C(C)CNCc3ccncc3)C2)c1 (relative stereo)", "test": "enzyme activity, inhibitor", "conditions": "10 µM", "measurement": "inhibition", "value": "-16%"}
{"SMILES": "O=C(Cc1ccc(OCc2ccccc2)cc1)NC1(C(=O)O)CCN(C(=O)c2ccc(-c3cccc(Cl)c3)cc2)CC1", "test": "enzyme activity, inhibitor", "conditions": "10 µM", "measurement": "activity vs control", "value": "122%"}
{"SMILES": "NC(=O)[C@@H](O)C[C@H]1CCc2sc3ncnc(O[C@H]4CC[C@H](N5CCOCC5)CC4)c3c21", "test": "enzyme activity, inhibitor", "conditions": "10 µM", "measurement": "inhibition", "value": "4%"}
{"SMILES": "CN1C[C@@H](c2c[nH]c3cc(Br)ccc23)NC[C@@H]1c1c[nH]c2cc(Br)ccc12", "test": "enzyme activity, inhibitor", "conditions": "10 µM", "measurement": "remaining activity", "value": "118%"}
{"SMILES": "COCC12C(=O)NC3C4(C(OC)CC1O)C1CC5(O)C(OC)C(O)C(OC(C)=O)(C1C5OC(=O)c1ccccc1)C3(O)C(OC)C24 (stereo not shown)", "test": "kinase activity, inhibitor, ProQinase kinase profiling", "conditions": "25 µM", "how to read": "reference: control", "measurement": "remaining activity", "value": "100% and 77%"}
{"SMILES": "Cc1ccc(-c2c(/C=C(\\C#N)C(=O)NC(C)C)n(CCCO)c3ncnc(N)c23)cc1", "test": "cell-free assay, competition with immobilised ligand", "conditions": "1 µM", "measurement": "remaining binding", "value": "94%"}
{"SMILES": "COc1cc(Nc2nc(C)cc(-c3cnn4nc(OC)ccc34)n2)cc(C(F)(F)F)c1", "test": "binding, competition with immobilised ligand", "conditions": "1 µM", "measurement": "remaining binding", "value": "83%"}
{"SMILES": "CN1CC[C@@H](COc2cnc(C#N)cc2-c2ccn3nc(NC(=O)C4CC4)cc3c2)C1", "test": "enzyme activity, inhibitor", "conditions": "1 µM", "measurement": "inhibition", "value": "-12%"}
{"SMILES": "CN1CCN(Cc2ccc(-c3ccc(CO[C@H]4CCC[C@@H]4NC(=O)c4cc(-c5cnn(C)c5)cnc4N)cc3)cc2)CC1", "test": "enzyme activity, inhibitor", "conditions": "0.1 µM", "measurement": "inhibition", "value": "5%"}
{"SMILES": "O=C=[N][Ru-4]123([n]4c5ccc(O)cc5c5c6c(c7cc(F)c[n+]1c7c54)C(=O)NC6=O)[S+]1CC[S+]2CC[S+]3CC1 (stereo not shown)", "test": "enzyme activity", "conditions": "100 nM, human enzyme, added: 10 µM ATP", "how to read": "reference: untreated", "measurement": "remaining activity", "value": "83%"}
{"SMILES": "CCn1cc(C(=O)O)c(=O)c2c(N)c(F)c(NC3CCCCC3)cc21", "test": "kinase activity", "conditions": "0.1 µM, added: ATP at Km", "measurement": "inhibition", "value": "9.3%"}
{"SMILES": "COc1ccc(C(=O)/C=C/c2ccccc2-c2c[nH]c3ccc(C#N)cc23)c(O)c1", "test": "enzyme activity, inhibitor", "conditions": "20 µM", "measurement": "inhibition", "value": "-1%"}
{"SMILES": "Cc1cnc2nc1Nc1cccc(c1)COC/C=C/COCc1cc(ccc1OCCN1CCOCC1)N2", "test": "binding", "conditions": "0.1 µM", "measurement": "remaining binding", "value": "73%"}
{"SMILES": "CNC(=O)C1CCN(c2cc(C)c(F)cc2NC(=O)c2ccc(-c3cc(O)ccc3C)c(C)c2)CC1", "test": "binding, competition with immobilised ligand", "conditions": "1 µM", "measurement": "remaining binding", "value": "100%"}
{"SMILES": "CS(=O)(=O)Nc1cccc(-c2csc3cnc(Nc4ccc(N5CCN(CCCCCOc6cccc7c6C(=O)N(C6CCC(=O)NC6=O)C7=O)CC5)cc4)nc23)c1 (stereo not shown)", "test": "probe labelling, inhibitor, KiNativ chemoproteomics", "system": "MOLT-4", "conditions": "1 µM", "measurement": "inhibition", "value": "-1.46%"}
{"SMILES": "C=CC(=O)Nc1cccc(-c2cnc3[nH]cc(C(=O)NC(C)(C)C)c3n2)c1", "test": "enzyme activity, inhibitor", "conditions": "0.1 µM", "measurement": "inhibition", "value": "2%"}
{"note": "A few entries again:"}
{"SMILES": "Cc1ccc(-c2c(/C=C(\\C#N)C(=O)NC(C)C)n(CCCO)c3ncnc(N)c23)cc1", "test": "cell-free assay, competition with immobilised ligand", "conditions": "1 µM", "measurement": "remaining binding", "value": "94%"}
